Experimental data pooled from the literature.
Numbered parts are unrelated; each lists some results of a single study. Changes are numbered by the printed parent chain.

Series 1
Target: Fragile X messenger ribonucleoprotein 1, C-terminal low-complexity region (Fmr1, Mus musculus, UniProt P35922)
Method: RNA Bind-n-Seq
Molecule type: RNA
Matrix: in vitro
Concentration: 200 nM
Notes: whole 134-nt RNA, ends assumed
Together with: 150 mM KCl
Baseline: input library
Reading: higher = stronger binding
All sequences stand within: GGGAGUUCUACAGUCCGACGAUC … UGGAAUUCUCGGGUGUCAAGG
The log2 enrichment of `UAACUUUAGAGGAGGAUCUGAUGGAUAUGGCAGUGGACGUGGAUUUGGAGAUGGCUAUAAUGGGUAUGGAGGAGGACCUGGAGGUGGCAA` is reported as 0.359.
`ACCAUGCAGGUGGGCAUCUUUGAGAAGUGGGGCAAGGGGGGGAUAGGGAGGGGGGUAACACUUUGGGAACAGGUGGUCCCAGGUCGUUUC` has a log2 enrichment of 0.768.
`GAGCAAAGAGCCAUUCAGCUUCAGUCUUUACAUACCAUGAAUAAAACAUUAAAACAUCAUAUGGAGAAGUUUACAUGGUGAUUGUUCACC` has a log2 enrichment of -0.326.
`CCUGUGCUACACAUCGUAUGUACCGAAUCGGGAAAAAGGGAAAAAAAGGGAAAAAAAGGGAAAGUAUUAUGUUACGCCGUUCGGAUCUGC` has a log2 enrichment of -0.74.
The log2 enrichment of `UAACUUUAGAGGAGGAUCUGAUGGAUAUGGCAGUGGACGUGGAUUUGGGGAUGGCUUUAAUGGGUAUGGAGGAGGACCUGGAGGUGGCAA` is reported as 0.212.
For `AACUGGAAGAACAGACCCGUAGGGCUCUGGAACUUGAGCAGGAACGGAAGCGUGCCCAGAGCGAGGCUGAAAAGCUGGCCAAGGAGCGUC`, the log2 enrichment was -0.879.
`UGGCAGGAAAGAGUUCCUAGAGAGAGAAGACAAAGACAGUCUGUGUUGCAAAAGAAGCCCAAGGCUGAAGAUUUAAGAACUGAAUGUGCA` gave a log2 enrichment of -0.969.
With `GCAGGAAGUAAAAACAAAUGGAAAUGCUUCGGAUAGUGGCAGGGGUGGGGCUUGCUAAGGAAAGGGUGGGAUGGGAGUGGGUAAAGAGUU` the log2 enrichment was 0.253.
With `UCCUGUGCUACACAUCGUAUGUACCGAAUCAAAUUUUUUUAAACCCCCAAACCCCCAAAAAAGUAUUAUGUUACGCCGUUCGGAUCUGCA` the log2 enrichment was -0.226.

Series 2
Target: Interferon regulatory factor 5, full length, phosphomimetic (IRF5, Homo sapiens, UniProt Q13568-2, residues 1-514, K96S/S451D/S453D/S456D/S462D)
Method: protein-binding microarray
Molecule type: double-stranded DNA, one strand shown
Matrix: in vitro
Concentration: 250 nM
Notes: 60-bp whole probe
Together with: salmon DNA 0.4 mg/ml
Baseline: random background probes
Reading: higher = stronger binding
All sequences stand within: GCCTAGCAC … GTCTTGATTCGCTTGACGCTGCTG
`TTAGATCTCAGTATCGATTTGTGCTAG` gave a log fluorescence of 6.15 z-score.
With `TCATTTTTTGTAATCGAACTGTGCTAG` the log fluorescence was 0.839 z-score.
The log fluorescence of `GACTGACTGGGGACTGGGGACGTGCTA` is reported as -0.325 z-score.
The log fluorescence of `GACAGTATCCTTATCCTGACGTGCTAG` is reported as 0.298 z-score.
For `GACGAGCTGAGTCTCGAGACGTGCTAG`, the log fluorescence was -0.521 z-score.
`TTAGGTTTCGGGTATCGGTTTGTGCTA` has a log fluorescence of 9.2 z-score.
`TTAGGTATCGGGTATCGGCTAGTGCTA` gave a log fluorescence of 4.57 z-score.
With `TCATTTCTCATTCGTCATACTGTGCTA` the log fluorescence was 1.58 z-score.
`AATGATTGGTTGAACATGAAGTGCTAG` has a log fluorescence of 0.206 z-score.
With `GACGAACTTAGTCTCGAGACGTGCTAG` the log fluorescence was 0.0574 z-score.
With `AGGCATCTCGGAGATCTCGAAGTGCTA` the log fluorescence was -0.393 z-score.
The log fluorescence of `TTAGGTATCGTACTGCTTTAGTGCTAG` is reported as 0.894 z-score.
For `TTAGGTCTCGGTAGCGGTTAGTGCTAG`, the log fluorescence was 0.638 z-score.
`GACGGACTGGAGTTTCGGGACGTGCTA` has a log fluorescence of 3.28 z-score.
The log fluorescence of `GTCGATCTCAGTATCGAGACGTGCTAG` is reported as 2.12 z-score.
`GACGAATTGAGTCTCGAGACGTGCTAG` gave a log fluorescence of 0.0267 z-score.
For `TTCGAATTCAGAATGGGAGAGTGCTAG`, the log fluorescence was 0.219 z-score.
`TTTGATTTCAGTCTCGATTAGTGCTAG` gave a log fluorescence of 3.91 z-score.
The log fluorescence of `GACGATCACAGACTGGAGACGTGCTAG` is reported as -0.597 z-score.

Series 3
Target: CCNA1, cyclin fold, Cln2 fusion (human)
Method: yeast growth competition, sequencing
Matrix: yeast
Notes: weak parent motif
Baseline: not given
Reading: higher = stronger binding
Starting sequence: RRM2 docking peptide (human); SKTARRIFQEPTE
Under “normalised enrichment score”, `R5A` is recorded as 0.281.
`T3A` — result for “normalised enrichment score”: -0.239.
For `E13A`, “normalised enrichment score” read 0.0684.
Under “normalised enrichment score”, `T12A` is recorded as -0.293.
Under “normalised enrichment score”, `R6A` is recorded as 0.287.
`P11A`: “normalised enrichment score” -0.429.

Series 4
Target: Histone acetyltransferase KAT6A, both winged helices, GST fusion (KAT6A, Homo sapiens, UniProt Q92794, residues 1-181)
Method: protein binding microarray
Molecule type: double-stranded DNA, one strand shown
Matrix: in vitro
Concentration: not given
Notes: 8-mer, flanks averaged, mean of 2 arrays, mostly near background
Baseline: not given
Reading: higher = stronger binding
Construct (chain): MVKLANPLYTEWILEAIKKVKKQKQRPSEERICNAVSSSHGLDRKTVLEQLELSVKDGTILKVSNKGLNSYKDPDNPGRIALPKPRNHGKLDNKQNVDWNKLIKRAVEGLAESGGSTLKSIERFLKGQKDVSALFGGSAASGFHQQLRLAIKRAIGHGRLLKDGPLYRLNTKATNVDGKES
The E-score of `ATGAGGCA` is reported as -0.214.
The E-score of `GGGGCTAA` is reported as -0.237.
With `TACGGGAA` the E-score was 0.298.
The E-score of `AAATAGAC` is reported as -0.1.
`CGCTGCGC` has an E-score of 0.299.
With `AATTTTAA` the E-score was -0.0915.
With `CGAAACCC` the E-score was 0.183.
`CTCCCGCA` gave an E-score of 0.29.
`AATCATGG` has an E-score of -0.204.
For `GCATCAAC`, the E-score was 0.0173.
With `AAAAATTC` the E-score was -0.205.
`CTTGATAA` has an E-score of -0.0757.
With `CTGGCTGA` the E-score was -0.229.
For `CCTCCTGC`, the E-score was -0.253.
With `GGAGATAC` the E-score was 0.0464.
The E-score of `CTAGCGCA` is reported as 0.151.
The E-score of `CCCCAATC` is reported as -0.237.
`GAGTCGCA` gave an E-score of -0.0679.
With `GGTGTTTA` the E-score was 0.095.
`CACTAAAC` has an E-score of 0.062.
`CTCCAATC` has an E-score of -0.102.

Mixed results
`PhoQ, residues 284 288 289 292 302 303 SCKMEA` gave a fold induction of 3.39 (PhoP, residues 12 14 15 18 19 SPWRL (Escherichia coli, UniProt P23836); Sort-seq, item: YFP reporter; E. coli; PhoQ-PhoP variant library, together with: 10 µM Mg2+; baseline: high Mg2+ state, higher = stronger signaling).
